{"data": "Published values from different studies", "note": "Compare with care: the assays were run in different laboratories. ± gives the spread as reported."}
{"SMILES": "CC[C@H](C)[C@H](NC(=O)[C@H](CCCNC(=N)N)NC(=O)[C@H](CCCCN)NC(=O)[C@H](Cc1ccc(O)cc1)NC(=O)[C@H](CC(=O)O)NC(=O)[C@H](C)NC(=O)CNC(=O)CCOCCOCCOCCNC(=O)CN1CCN(CC(=O)O)CCN(CC(=O)O)CCN(CC(=O)O)CC1)C(=O)N[C@H](C(=O)N[C@H](C(=O)N[C@@H](CCCCN)C(=O)N[C@H](C(=O)N[C@@H](CC(N)=O)C(N)=O)C(C)C)C(C)C)[C@@H](C)O [copper-64 labelled]", "test": "ex vivo gamma counting", "test system": "C57BL/6J male mice, B16-F10 tumour, pancreas", "setting": "intravenous, 1.85 MBq, 5 min", "measurement": "tissue uptake", "result": "1.59 ± 0.056 %ID/g"}
{"SMILES": "O=C1NC2(CC2)COc2ncc(F)cc2[C@H]2COCCN2c2ccn3ncc1c3n2", "test system": "Sprague-Dawley rat, female, blood", "setting": "oral, 20 mg/kg/day, 4 weeks, end of recovery, subacute toxicity", "measurement": "monocyte percentage", "result": "1.5 ± 0.9%"}
{"SMILES": "CSCC[C@H](NC(=O)CNC(=O)[C@H](CCCCN)NC(=O)[C@H](CC(C)C)NC(=O)[C@@H]1CCCN1C(=O)[C@H](CO)NC(=O)[C@H](Cc1c[nH]cn1)NC(=O)[C@H](Cc1c[nH]c2ccccc12)NC(=O)[C@H](CCCNC(=N)N)NC(=O)[C@H](CC(C)C)NC(=O)[C@H](CCCNC(=N)N)NC(=O)[C@H](Cc1c[nH]c2ccccc12)NC(=O)[C@H](CS)NC(=O)CCCCCNC(=O)CN1CCN(CC(=O)O)CCN(CC(=O)O)CCN(CC(=O)O)CC1)C(=O)O [copper-64 labelled]", "test": "ex vivo biodistribution", "test system": "male C57BL/6J mice, testis", "setting": "intravenous, 1.85 MBq, 18 h, B16-F10 tumour-bearing", "measurement": "tissue uptake", "result": "0.7 %ID/g"}
{"SMILES": "CC(C)C[C@@H](NC(=O)[C@@H](CCCNC(=N)N)NC(=O)[C@@H](Cc1c[nH]cn1)NC(=O)[C@@H](Cc1c[nH]c2ccccc12)NC(=O)[C@@H](Cc1c[nH]cn1)NC(=O)[C@@H](Cc1ccccc1)NC(=O)[C@H](NC(=O)[C@@H](Cc1ccc(O)cc1)NC(=O)CNC(=O)CNC(=O)CCOCCOCCOCCNC(=O)CN1CCN(CC(=O)O)CCN(CC(=O)O)CC1)[C@H](C)O)C(=O)N[C@H](CC(N)=O)C(=O)N1CCC[C@@H]1C(=O)O [gallium-68 labelled]", "test system": "C57BL/6 mice, male, pancreas", "setting": "intravenous, 1.85 MBq, 60 min, with: GP12 blocking", "measurement": "tissue uptake", "result": "0.84 ± 0.17 %ID/g"}
{"SMILES": "CC[C@H](C)[C@H](NC(=O)[C@@H](Cc1c[nH]c2ccccc12)NC(=O)[C@@H]1CCCN1C(=O)[C@H](CCCCN)NC(=O)[C@H](CCCCN)NC(=O)CCNC(=O)CCNC(=O)CN1CCN(CC(=O)O)CCN(CC(=O)O)CCN(CC(=O)O)CC1)C(=O)N[C@@H](C[Si](C)(C)C)C(=O)O [gallium-68 labelled]", "test system": "nude mouse HT-29 xenograft, brain", "setting": "90 min", "measurement": "tissue uptake", "result": "0.04 ± 0.03 %ID/g"}
{"SMILES": "C[C@H](O)[C@@H](NC(=O)[C@H]1CCCN1C(=O)[C@@H](CCCCN)NC(=O)[C@@H](CO)NC(=O)[C@@H](Cc1ccc(O)cc1)NC(=O)[C@@H](CC(N)=O)NC(=O)CCOCCOCCOCCNC(=O)CN1CCN(CC(=O)O)CCN(CC(=O)O)CCN(CC(=O)O)CC1)C(=O)N[C@H](CC(=O)O)C(=O)N[C@H](CCCNC(=N)N)C(=O)N[C@H](CCC(N)=O)C(=O)N[C@H](Cc1ccc(O)cc1)C(=O)N[C@H](Cc1c[nH]cn1)C(=O)N[C@H](Cc1ccccc1)C(N)=O [gallium-68 labelled]", "test": "ex vivo gamma counting", "test system": "BALB/c nude mouse, U-87 MG xenograft, blood", "setting": "intravenous, 1.85 MBq, 5 min", "measurement": "tissue uptake", "result": "3.89 ± 0.43 %ID/g"}
{"SMILES": "O=C(CN1CCN(CC(=O)NCP(=O)([O-])[O-])CCN(CC(=O)NCP(=O)([O-])[O-])CCN(CC(=O)NCP(=O)([O-])[O-])CC1)NCP(=O)([O-])[O-].[Gd+3]", "test system": "Sprague-Dawley rat, blood", "setting": "intravenous (tail vein), dose not given, 2 h", "measurement": "tissue uptake", "result": "0.062 ± 0.036 % injected dose/g"}
{"SMILES": "CC[C@H](C)[C@H](NC(=O)[C@H](CCCCN)NC(=O)CNC(=O)[C@H](CC(C)C)NC(=O)[C@H](Cc1ccccc1)NC(=O)[C@H](CCCCN)NC(=O)[C@H](CO)NC(=O)[C@H](Cc1ccccc1)NC(=O)[C@H](Cc1c[nH]c2ccccc12)NC(=O)[C@H](CCC(N)=O)NC(=O)[C@@H](NC(=O)[C@H](Cc1ccccc1)NC(=O)CCCCCNC(=O)CN1CCN(CC(=O)O)CCN(CC(=O)O)CCN(CC(=O)O)CC1)C(C)C)C(=O)N[C@@H](CCC(=O)O)C(=O)N1CCC[C@H]1C(=O)N[C@@H](CC(=O)O)C(=O)N[C@H](C(=O)N[C@@H](CO)C(=O)N[C@@H](CCC(N)=O)C(=O)N[C@H](C(=O)N[C@@H](CCC(N)=O)C(=O)N[C@@H](CC(=O)O)C(=O)N1CCC[C@H]1C(=O)N[C@@H](CC(N)=O)C(=O)N[C@@H](CC(=O)O)C(=O)N[C@@H](CCC(N)=O)C(=O)N[C@@H](Cc1ccc(O)cc1)C(=O)N[C@@H](CCC(=O)O)C(=O)N1CCC[C@H]1C(=O)N[C@@H](Cc1ccccc1)C(=O)O)C(C)C)C(C)C [copper-64 labelled]", "test system": "BALB/c mice, male, CT26 tumour-bearing, large intestine", "setting": "2 h, vehicle-treated", "measurement": "tissue uptake", "result": "4.48 ± 1.4 %ID/g"}
{"SMILES": "CN1Cc2cc(Cl)ccc2-n2c(nnc2C2CCN(c3cccc([18F])n3)CC2)C1", "test system": "C57BL/6 mouse male, kidney", "setting": "intravenous, dose not given, 30 min, with: blocking agent 10 mg/kg", "measurement": "tissue uptake", "result": "9.15 ± 2.44 %ID/g"}
